Measured values of several laboratories.
Numbered parts are unrelated; each lists some results of a single study.

Block 1 — method: RNA Bind-n-Seq; molecule type: RNA; matrix: in vitro; tested at: not given; reference: input RNA pool; direction: higher = stronger binding
Target: RING finger protein unkempt homolog, zinc fingers 1-6, GST-SBP tag (UNK, Homo sapiens, UniProt Q9C0B0, residues 30-357)
Chain of UniProt Q9C0B0 (30-357, looked up): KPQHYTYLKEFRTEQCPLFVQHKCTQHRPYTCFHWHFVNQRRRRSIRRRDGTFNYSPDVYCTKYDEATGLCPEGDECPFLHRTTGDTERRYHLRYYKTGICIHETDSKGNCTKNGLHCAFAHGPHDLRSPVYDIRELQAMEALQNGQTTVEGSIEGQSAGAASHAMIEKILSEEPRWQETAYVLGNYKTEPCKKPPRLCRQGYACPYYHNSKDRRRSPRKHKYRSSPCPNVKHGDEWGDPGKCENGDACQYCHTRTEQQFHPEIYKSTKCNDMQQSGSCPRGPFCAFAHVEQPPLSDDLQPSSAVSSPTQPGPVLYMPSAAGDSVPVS
Notes: RNA with constant flanks, human and mouse sites, ends assumed
| Oligonucleotide | bound/input enrichment |
| --- | --- |
| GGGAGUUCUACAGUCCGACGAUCAAAUCCUCAUUGACGAUUCAAUUUGUUGAAGGCCAAUUUGUGGACUCCUACGAUCCAACCAUAGAAAACACUUUUACAAAGUUGAUCACAGUAAAUGGACAAGAAUAUCAUCUUCAACUUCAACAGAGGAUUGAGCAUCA | 0.342 ratio |
| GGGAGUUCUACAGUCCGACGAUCGAAACUGAAGAUGUAAAAGAAGCCAUAAGAAGGCUUCCUGAGGACCUUUAUAAUGACAGGAUGUUUCGAAUUAAGAGAGCCCUGGACCUGACUAUGAGGCAUCAGAUCUUGCCUAAGGAUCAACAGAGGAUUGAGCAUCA | 0.177 ratio |
| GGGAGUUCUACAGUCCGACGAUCGGGGGCAAGGCCAAAAAGAAGAAGUGGUCCAAAGGCAAAGUUCGGGACAAGCUCAAUAACUUAGUCUUGUUUGACAAAGCUACCUAUGAUAAACUCUGUAAGGAAGUUCCCAACUAUAAACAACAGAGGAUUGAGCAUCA | 0.51 ratio |
| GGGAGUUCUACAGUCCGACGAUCAGACGAAGCUAUGGAGAUAUUUUGCAUAGAAUGAAGGAUCUCUGCAGAUACAUGAACAACUUUGAUAGUGAAGCACAUGCAAAAUAUAAAAACCAAGUGGUGUAUUCCACCAUGCUGGUCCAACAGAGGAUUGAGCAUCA | 0.195 ratio |
| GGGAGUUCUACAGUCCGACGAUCUUGAUUGCAUCAAAAUGUAUUUCAUCUGUUACAUCCAGUAUUUGUAUUUCAUUCUGAGAACCCAGAUUUCCCCCCACCACCACCACAUUAUAAAUUAAGAAAGGAGGCUAUUACUGUUUACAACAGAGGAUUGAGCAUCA | 1.21 ratio |
| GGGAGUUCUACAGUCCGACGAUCGCUCAGGAUUCUUUUAAAGGUACAAGGAUAGGUGUGAGGAUUUAUUUUUGGUUAUAUUUGAACUGUAUGAAUGGUGGGUCUGAAAACAGAGUAUUUCACGGUCUAGUGAGGAGGUAAACUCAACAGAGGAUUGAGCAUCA | 0.39 ratio |
| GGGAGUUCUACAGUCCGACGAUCUCAACUGACAACAUCAAAUACCAGCCUAAGGGGGGUCAGGUACAAAUUGUUACUAAGAAGAUAGACUUAAGCCAUGUGACAUCCAAAUGUGGCUCUCUAAAGAACAUCCGUCACAGGCCACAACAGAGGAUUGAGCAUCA | 0.318 ratio |
| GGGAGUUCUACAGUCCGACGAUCAUCCUAAGGUUCAAUGUUCAAGAGAAUGGGUUUUUAUCUUCAUUGCCUUAUUUAGGCUCUUGGUUAUGUAUGAUCCUGUCUGGUCAAGCUGCUGACAAUUUAAGGGCAAAAUGGAAUUUUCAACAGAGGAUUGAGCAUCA | 0.181 ratio |

Block 2 — method: RNA Bind-n-Seq; molecule type: RNA; matrix: in vitro; tested at: 90 pmol; notes: 4-mer, random 30-nt RNA, single round; reference: input library; direction: higher = stronger binding
Target: ATP-dependent RNA helicase DDX3X, helicase core (DDX3X, Homo sapiens, UniProt O00571, residues 132-607)
Chain of UniProt O00571 (132-607, looked up): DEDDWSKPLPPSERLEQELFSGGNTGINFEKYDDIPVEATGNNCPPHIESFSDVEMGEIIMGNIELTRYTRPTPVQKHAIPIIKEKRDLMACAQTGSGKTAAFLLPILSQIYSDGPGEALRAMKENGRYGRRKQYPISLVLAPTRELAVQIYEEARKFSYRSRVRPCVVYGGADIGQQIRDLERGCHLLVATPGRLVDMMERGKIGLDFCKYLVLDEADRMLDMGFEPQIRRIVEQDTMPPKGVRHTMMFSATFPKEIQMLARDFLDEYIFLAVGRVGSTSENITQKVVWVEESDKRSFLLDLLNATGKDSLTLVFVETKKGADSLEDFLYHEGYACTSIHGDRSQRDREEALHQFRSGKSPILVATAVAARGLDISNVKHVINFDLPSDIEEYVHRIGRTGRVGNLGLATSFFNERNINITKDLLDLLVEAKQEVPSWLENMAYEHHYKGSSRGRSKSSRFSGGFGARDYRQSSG
Added: 3 µM iPr-DMDA-PatA, 2 mM ADP, 2 mM phosphate
| Oligonucleotide | 4-mer enrichment [fold] |
| --- | --- |
| UCUG | 0.815 |
| AUGC | 0.819 |
| UAAG | 1.17 |
| CUUA | 0.956 |
| UGGA | 1.06 |
| UGAG | 1.12 |
| UCUC | 0.911 |
| UUAA | 1.3 |
| CCCG | 1.03 |
| GAAC | 1.15 |

Block 3 — method: RNA Bind-n-Seq; molecule type: RNA; matrix: in vitro; tested at: 365 nM; reference: no-protein control; direction: higher = stronger binding
Target: RNA binding protein fox-1 homolog 2, RRM domain, GST-SBP tag (RBFOX2, Homo sapiens, UniProt O43251-10, residues 100-194)
Notes: natural RNA segment, single round, ends assumed
Construct (chain): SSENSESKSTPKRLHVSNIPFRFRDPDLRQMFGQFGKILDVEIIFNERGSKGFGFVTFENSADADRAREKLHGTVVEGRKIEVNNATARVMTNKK
| Oligonucleotide | RBNS enrichment (R) |
| --- | --- |
| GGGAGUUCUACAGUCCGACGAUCAAAUCUUCAAAUAUUGUCUACUGUGUAAGGCAGAAAAAUUUCUUAUCAUGCAAAAACCAUUUUGUUUCCAGGGUAACAAGUAACUAAGUGCAUGCACAACUUGUUUUCCCUGGAAUUCUCGGGUGCCAA | 5.16 |
| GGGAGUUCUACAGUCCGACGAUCUGUCACUUCAGCACAUCUUCCACAGCUGCCCAGCUGUCUUUGGUGUGUCCCGGAGGAACAGGCUAAGCAAGGGGCCCAGGAAGUUGUCCAGAGGACAGGGGCUAAUGAGCUGGAAUUCUCGGGUGCCAA | 0.535 |
| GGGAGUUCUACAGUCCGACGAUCGUCUUAGGCUCAUUUGUUCCUUACCAUUUUGUCGAGGUUUUUUGGGGGGUAGUGACAGAAUCCCUGGAAGAGUCUUGAGCCACUUCCUGCUGGGGUUUCUAGUAAAGUCUUGGAAUUCUCGGGUGCCAA | 0.807 |
| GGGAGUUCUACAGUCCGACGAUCGCGCCUCAGUGGGCAUCCUGGCCUCGGCUCCUUCUGCCUGUGUGAGCAUCUGUGCACCCACUCUUCAGCCCCUACCCAUCUGCCACCUUGGUCUGACUUGGCCAUGGGAGUGGAAUUCUCGGGUGCCAA | 1.66 |
| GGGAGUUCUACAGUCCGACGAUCGUACAUGAGUUAAGCAUACUUGUUGCAUUGUCUCUGCAGAUUCUAUUUUUGUUUACAAUAUUAAAAUGUAUGUUAGCAAAUGGGUGGAUUUUCAAAUAAAAUGCAGCUUCUGGAAUUCUCGGGUGCCAA | 0.407 |
| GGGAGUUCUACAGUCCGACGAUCUCUACUACCAGAAGGGCUUCAAAGAUAUAGGGUGUGGCUCCUACCAGCAAACAGCUGAAAGAGGAGGACCCCUGCCUUCCUCUGAGGACAGGCUCUAGAGAGAGGGAGAAUGGAAUUCUCGGGUGCCAA | 0.352 |
| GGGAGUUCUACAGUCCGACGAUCCCAGUUCCCUCUCCAAUGUCCGGUGCCAUCUUUCCUGACCUUUGUUUCUUUCUGUUCAGGAACCAUCAGUCCCCUUGUAAUAAAGGUGGUAGAUUUCAUUGAGGUUUUAGUGGAAUUCUCGGGUGCCAA | 0.454 |
| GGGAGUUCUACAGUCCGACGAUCAUAUCAGAAACUCACAAACCUAGACAUGGAAAAACAGAUUACUGUCUAUUGUCAGCAUCAUUUUCAUCUGUAAGUCACUACUGGAAUAUAUUUUUCUUUUAAUUUCCAGUUGGAAUUCUCGGGUGCCAA | 0.514 |

Block 4 — method: protein-binding microarray; molecule type: double-stranded DNA, one strand shown; matrix: in vitro; tested at: 2540 nM top; notes: 60-bp whole probe; added: salmon DNA 0.4 mg/ml; reference: random background probes; direction: higher = stronger binding; shared flanks, not repeated: GCCTAGCAC … GTCTTGATTCGCTTGACGCTGCTG
Target: Interferon regulatory factor 3, full length, phosphomimetic (IRF3, Homo sapiens, UniProt Q14653, residues 1-427, S386D/S396D/S398D/S402D/T404D/S405D)
Chain of UniProt Q14653 (whole entry, unmodified, looked up): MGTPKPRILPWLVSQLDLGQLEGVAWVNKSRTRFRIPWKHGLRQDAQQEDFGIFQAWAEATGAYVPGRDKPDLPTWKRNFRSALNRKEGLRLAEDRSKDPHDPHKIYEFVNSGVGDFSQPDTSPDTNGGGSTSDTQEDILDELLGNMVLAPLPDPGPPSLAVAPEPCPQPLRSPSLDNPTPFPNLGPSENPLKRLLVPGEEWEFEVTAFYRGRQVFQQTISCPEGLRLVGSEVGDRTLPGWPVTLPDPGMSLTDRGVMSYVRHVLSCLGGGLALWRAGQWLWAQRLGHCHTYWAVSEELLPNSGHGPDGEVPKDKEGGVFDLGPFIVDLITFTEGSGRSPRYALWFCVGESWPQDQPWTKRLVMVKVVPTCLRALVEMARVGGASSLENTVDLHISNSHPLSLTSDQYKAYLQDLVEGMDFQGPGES
| Oligonucleotide | fitted relative affinity [z-score] |
| --- | --- |
| TCAAGTTTTAATAACACACTGTGCTAG | 0.102 |
| GCTGCCCTCACCATCATCCTGTGCTAG | -0.418 |
| TTACATATCGGGTTTCGATTAGTGCTA | 2.41 |
| TTAGATATCAGTCTCAATTAGTGCTAG | 1.26 |
| TTAGAACTGAGACTGGACTAGTGCTAG | -0.478 |
| GAGGAACTGAGACTGGAGACGTGCTAG | -0.671 |
| TCTTTTTTTTCTTTAAAAGTGTGCTAG | 2.27 |
| TTATGACTGCTACTGCTTTAGTGCTAG | -0.496 |
| GACGATTTCGGGTATAGAGACGTGCTA | 1.78 |
| GACGATATCGGGACTGGAGCCGTGCTA | -0.0188 |
| TTGTTTTTCATCATTGCCTAGTGCTAG | 1.09 |
| TCAACTCTTTACATGGGACTGTGCTAG | 0.312 |
| GACGAACTGGGGTGTCGAGACGTGCTA | -0.514 |
| GACGGTCTCGGTATCGGGGCGTGCTAG | 1.41 |
| TATCAGTTTAATATCTAAGAGTGCTAG | 3.09 |
| GACGGACTGGACTTACGGGACGTGCTA | -0.583 |

Block 5 — method: RNAcompete; molecule type: RNA; matrix: in vitro; tested at: 20 nM; notes: 7-mer, probes averaged, single round; reference: mean of 7-mers; direction: higher = stronger binding
Target: PABPC1L2, full length, GST fusion (mouse, UniProt A0ABA7IW68)
Target sequence (chain): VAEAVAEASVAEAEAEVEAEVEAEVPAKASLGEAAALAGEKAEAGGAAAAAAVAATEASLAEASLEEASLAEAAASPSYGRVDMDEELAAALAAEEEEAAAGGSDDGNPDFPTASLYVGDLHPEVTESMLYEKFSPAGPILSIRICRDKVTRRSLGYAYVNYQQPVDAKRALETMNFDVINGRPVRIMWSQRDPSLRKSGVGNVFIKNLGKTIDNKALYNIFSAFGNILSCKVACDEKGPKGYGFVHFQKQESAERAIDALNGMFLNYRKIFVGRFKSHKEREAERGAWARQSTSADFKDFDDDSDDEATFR
| Oligonucleotide | 7-mer Z-score |
| --- | --- |
| GACGACA | 0.00979 |
| GCGCGUC | -0.237 |
| UUUCUCA | -0.487 |
| UGACCAU | -0.0699 |
| UGUUGGC | -0.306 |
| UUAUACC | -0.291 |
| CGAGGUC | -0.0536 |
| CGUCAUU | -0.307 |
| GGCAUUA | 0.162 |
| CCUGAGC | -0.253 |
| AGCACAA | 0.256 |
| AUACAUU | 0.037 |
| UUUUCCA | -0.277 |
| CAAUGCG | -0.119 |
| UAGUUGU | -0.3 |
| CAGAGAC | 0.236 |
| UAAACAU | 2.09 |
